# Results pooled from the literature.
# Compare with care: the assays were run in different laboratories. Several values in a cell are separate wells, animals, samples, runs or records. Numbers after ± are the reported error.
# UniProt P53350, sequence (whole entry, looked up): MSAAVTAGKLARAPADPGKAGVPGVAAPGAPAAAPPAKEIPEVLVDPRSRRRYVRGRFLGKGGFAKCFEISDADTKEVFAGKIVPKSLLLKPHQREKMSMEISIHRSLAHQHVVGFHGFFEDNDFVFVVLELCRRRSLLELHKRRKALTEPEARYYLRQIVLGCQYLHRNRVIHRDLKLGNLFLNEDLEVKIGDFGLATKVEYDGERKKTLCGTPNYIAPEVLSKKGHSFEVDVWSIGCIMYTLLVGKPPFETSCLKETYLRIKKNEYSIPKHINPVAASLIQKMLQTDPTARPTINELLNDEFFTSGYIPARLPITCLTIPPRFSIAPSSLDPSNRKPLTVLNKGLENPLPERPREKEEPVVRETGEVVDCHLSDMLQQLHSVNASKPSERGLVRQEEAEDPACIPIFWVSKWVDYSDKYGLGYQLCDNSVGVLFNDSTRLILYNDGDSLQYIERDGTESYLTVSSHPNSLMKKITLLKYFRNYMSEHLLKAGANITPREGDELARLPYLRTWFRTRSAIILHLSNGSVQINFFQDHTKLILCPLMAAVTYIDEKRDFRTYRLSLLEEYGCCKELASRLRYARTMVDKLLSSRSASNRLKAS
# UniProt P29122, sequence (whole entry, looked up): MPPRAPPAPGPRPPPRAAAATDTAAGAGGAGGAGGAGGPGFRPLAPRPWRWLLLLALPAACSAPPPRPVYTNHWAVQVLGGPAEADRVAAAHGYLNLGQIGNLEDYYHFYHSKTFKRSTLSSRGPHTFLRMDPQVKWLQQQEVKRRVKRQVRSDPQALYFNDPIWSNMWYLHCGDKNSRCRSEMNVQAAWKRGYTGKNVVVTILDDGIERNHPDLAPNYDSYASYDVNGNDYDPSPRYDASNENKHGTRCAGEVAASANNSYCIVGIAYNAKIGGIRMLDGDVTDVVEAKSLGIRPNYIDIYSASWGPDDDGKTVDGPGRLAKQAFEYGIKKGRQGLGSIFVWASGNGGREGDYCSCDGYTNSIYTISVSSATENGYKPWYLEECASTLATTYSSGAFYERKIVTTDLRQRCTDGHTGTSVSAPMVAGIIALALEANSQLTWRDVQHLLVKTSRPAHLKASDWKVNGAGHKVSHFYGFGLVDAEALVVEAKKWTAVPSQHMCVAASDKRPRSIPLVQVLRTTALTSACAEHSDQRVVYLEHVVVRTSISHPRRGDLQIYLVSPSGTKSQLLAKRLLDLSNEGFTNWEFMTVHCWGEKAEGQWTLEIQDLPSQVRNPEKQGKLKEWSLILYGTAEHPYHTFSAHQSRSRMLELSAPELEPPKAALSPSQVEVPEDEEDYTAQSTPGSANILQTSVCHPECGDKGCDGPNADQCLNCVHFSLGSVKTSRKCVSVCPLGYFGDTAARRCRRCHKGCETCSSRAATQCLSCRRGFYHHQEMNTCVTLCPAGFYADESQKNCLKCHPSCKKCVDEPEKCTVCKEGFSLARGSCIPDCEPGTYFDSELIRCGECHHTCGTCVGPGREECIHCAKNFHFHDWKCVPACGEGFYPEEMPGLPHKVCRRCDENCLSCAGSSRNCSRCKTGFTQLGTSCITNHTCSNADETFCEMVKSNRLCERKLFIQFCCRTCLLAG
# UniProt P30874, sequence (whole entry, looked up): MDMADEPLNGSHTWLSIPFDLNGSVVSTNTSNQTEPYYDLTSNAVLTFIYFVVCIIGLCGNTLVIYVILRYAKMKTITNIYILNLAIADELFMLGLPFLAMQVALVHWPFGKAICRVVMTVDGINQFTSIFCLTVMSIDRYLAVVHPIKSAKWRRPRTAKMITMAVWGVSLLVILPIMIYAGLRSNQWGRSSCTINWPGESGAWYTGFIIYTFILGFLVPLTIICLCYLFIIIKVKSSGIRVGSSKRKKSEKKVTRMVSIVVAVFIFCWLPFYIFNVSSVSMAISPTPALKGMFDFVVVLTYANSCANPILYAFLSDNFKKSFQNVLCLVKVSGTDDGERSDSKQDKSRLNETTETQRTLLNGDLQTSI
# UniProt P23141, sequence (whole entry, looked up): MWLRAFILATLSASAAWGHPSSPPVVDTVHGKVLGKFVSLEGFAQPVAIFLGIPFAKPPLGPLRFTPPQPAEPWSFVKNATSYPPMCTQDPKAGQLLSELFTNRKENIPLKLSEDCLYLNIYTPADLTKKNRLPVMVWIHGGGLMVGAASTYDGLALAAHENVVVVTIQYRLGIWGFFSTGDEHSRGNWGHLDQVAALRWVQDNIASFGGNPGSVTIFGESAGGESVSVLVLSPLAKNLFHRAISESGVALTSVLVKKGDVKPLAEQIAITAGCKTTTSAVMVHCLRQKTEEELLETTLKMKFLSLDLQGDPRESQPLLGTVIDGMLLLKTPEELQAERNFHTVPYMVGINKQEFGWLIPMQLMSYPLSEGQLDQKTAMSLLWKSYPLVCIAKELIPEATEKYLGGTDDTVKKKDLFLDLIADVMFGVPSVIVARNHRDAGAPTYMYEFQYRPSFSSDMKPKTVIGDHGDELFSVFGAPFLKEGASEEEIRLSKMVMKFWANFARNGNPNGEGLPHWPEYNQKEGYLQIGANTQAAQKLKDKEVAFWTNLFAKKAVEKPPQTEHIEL
# UniProt P20618, sequence (whole entry, looked up): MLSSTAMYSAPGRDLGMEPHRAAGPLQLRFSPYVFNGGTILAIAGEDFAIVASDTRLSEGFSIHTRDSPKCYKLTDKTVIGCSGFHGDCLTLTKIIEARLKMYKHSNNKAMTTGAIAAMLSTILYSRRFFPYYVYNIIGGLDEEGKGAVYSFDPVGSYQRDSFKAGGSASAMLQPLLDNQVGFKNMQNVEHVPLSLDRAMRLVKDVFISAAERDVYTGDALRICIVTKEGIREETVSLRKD
# UniProt P11712, sequence (whole entry, looked up): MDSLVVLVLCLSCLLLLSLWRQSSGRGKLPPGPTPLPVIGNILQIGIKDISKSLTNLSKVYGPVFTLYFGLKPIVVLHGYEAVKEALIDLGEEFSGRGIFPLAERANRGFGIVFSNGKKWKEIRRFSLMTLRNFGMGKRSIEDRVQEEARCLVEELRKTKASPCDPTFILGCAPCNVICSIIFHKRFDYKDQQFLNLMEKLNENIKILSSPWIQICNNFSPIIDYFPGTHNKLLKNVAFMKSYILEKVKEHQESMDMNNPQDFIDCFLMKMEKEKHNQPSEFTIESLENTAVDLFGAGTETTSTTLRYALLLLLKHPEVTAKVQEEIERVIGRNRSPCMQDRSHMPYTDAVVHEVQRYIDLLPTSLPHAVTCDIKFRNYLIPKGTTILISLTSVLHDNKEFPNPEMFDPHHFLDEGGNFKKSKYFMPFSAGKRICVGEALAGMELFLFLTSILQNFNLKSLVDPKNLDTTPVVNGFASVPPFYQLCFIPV
# UniProt P30101, sequence (whole entry, looked up): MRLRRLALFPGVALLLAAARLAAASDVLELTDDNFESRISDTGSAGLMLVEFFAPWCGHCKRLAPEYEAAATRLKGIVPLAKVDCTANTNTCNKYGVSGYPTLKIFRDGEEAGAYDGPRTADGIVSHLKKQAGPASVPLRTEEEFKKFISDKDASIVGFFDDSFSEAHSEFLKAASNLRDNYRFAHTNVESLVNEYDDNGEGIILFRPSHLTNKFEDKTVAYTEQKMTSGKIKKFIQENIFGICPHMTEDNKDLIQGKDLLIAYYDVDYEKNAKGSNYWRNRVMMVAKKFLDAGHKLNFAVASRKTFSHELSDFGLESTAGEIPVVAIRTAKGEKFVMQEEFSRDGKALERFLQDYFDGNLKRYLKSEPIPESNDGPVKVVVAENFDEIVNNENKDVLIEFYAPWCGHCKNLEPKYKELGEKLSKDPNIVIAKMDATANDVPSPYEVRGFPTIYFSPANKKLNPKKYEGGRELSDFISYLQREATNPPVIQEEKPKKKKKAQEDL
# UniProt P28062, sequence (whole entry, looked up): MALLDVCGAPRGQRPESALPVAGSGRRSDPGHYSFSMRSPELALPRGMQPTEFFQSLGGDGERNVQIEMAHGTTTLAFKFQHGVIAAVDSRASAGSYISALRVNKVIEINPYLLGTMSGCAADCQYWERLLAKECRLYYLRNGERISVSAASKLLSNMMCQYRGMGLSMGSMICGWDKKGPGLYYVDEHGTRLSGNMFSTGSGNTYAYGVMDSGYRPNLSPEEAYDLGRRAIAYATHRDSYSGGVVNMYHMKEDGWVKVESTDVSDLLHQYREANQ
# UniProt P26718, sequence (whole entry, looked up): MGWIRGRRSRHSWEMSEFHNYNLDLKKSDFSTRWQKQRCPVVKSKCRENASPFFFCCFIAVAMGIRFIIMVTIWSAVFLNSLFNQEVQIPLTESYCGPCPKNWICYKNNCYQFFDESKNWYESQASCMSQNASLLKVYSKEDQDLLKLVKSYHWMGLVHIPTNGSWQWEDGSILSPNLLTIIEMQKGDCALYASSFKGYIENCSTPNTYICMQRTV
# UniProt P37136, sequence (whole entry, looked up): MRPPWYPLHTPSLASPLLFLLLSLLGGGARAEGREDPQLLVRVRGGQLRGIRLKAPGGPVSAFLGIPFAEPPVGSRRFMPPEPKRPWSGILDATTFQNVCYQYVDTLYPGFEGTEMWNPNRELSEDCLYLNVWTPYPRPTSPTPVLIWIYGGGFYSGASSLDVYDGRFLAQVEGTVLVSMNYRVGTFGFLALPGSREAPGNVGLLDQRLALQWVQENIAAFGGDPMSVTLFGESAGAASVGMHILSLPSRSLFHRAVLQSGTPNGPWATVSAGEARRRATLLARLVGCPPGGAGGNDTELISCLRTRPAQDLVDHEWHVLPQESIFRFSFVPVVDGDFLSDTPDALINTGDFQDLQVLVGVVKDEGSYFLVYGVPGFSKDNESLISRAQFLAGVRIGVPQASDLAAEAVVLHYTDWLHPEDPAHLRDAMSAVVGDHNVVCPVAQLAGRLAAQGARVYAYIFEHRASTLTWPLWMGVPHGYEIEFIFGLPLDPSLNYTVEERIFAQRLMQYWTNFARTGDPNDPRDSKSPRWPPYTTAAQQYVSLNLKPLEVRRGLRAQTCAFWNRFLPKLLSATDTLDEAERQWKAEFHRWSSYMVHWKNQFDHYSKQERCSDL
SMILES,target,test,test system,conditions,IC50
CCN(CC)C(=O)C[C@H](NC(=O)CCc1ccccc1)C(=O)N[C@@H](C)C(=O)NCc1cccc2ccccc12,"Proteasome component C5/PSMB8, beta5i subunit (Homo sapiens, UniProt P20618+P28062)",inhibitor,,,3.75 ± 0.6 µM
CNc1nc(SC)nc2ccccc12,"Cytochrome P450 2C9 (CYP2C9, Homo sapiens, UniProt P11712)",inhibitor,,,> 50 µM
CCOC(=O)c1ccc(-c2ccc(OC(=O)N(C)Cc3cccc(-c4ccncc4)c3)cc2)cc1,"Liver carboxylesterase 1 (CES1, Homo sapiens, UniProt P23141)","enzyme activity in cells, inhibitor",,,~0.05 µM
CC(C)C[C@@H]1NC(=O)[C@H](CCCCN)NC(=O)CNC(=O)CNC(=O)[C@H](Cc2ccccc2)NC(=O)[C@H](CO)NC(=O)[C@H](Cc2ccccc2)NC(=O)[C@H](C(C)C)NC(=O)[C@H](Cc2ccc(O)cc2)NC(=O)[C@H](C(C)C)NC(=O)[C@H](Cc2ccc(O)cc2)NC(=O)CSC[C@@H](C(=O)NCC(N)=O)NC(=O)[C@H](CCCCN)NC(=O)[C@H](CCCNC(=N)N)NC(=O)[C@H](C(C)C)NC(=O)[C@H](CC(C)C)NC(=O)[C@H](Cc2ccc(O)cc2)NC1=O,"Nicotinamide N-methyltransferase (NNMT, Homo sapiens, UniProt P40261)","enzyme activity, inhibitor, mass spectrometry",,,5.34 µM
CCCCCCCCCC(=O)N[C@@H](CCCNC(=N)N)C(=O)N[C@H](C(=O)N[C@@H](CCCCN)C(=O)N[C@@H](CCCNC(=N)N)C(=O)CCl)C(C)C,"Proprotein convertase subtilisin/kexin type 6 (Homo sapiens, UniProt P29122)","enzyme activity, inhibitor",,,0.000631 µM
CS(=O)(=O)SCCN,"arsenite methyltransferase (Chlamydomonas reinhardtii, UniProt K0BVM7)",,,,240 µM
COc1ccc(-c2coc3cc(OCCN4CCCC[C@@H]4C)ccc3c2=O)cc1,"Acetylcholinesterase (Ache, Rattus norvegicus, UniProt P37136)","enzyme activity, inhibitor, Ellman",,,21.2 µM
CNC(=O)C1CN1S(=O)(=O)c1ccc(C(C)(C)C)cc1 (centres unmarked),"Protein disulfide-isomerase A3 (PDIA3, Homo sapiens, UniProt P30101)","enzyme activity, inhibitor, absorbance",,pH 7.6,62 µM
CC(=O)N(CCCCCCc1ccccc1)CC(=O)N[C@@H](CC(C)C)C(=O)N[C@@H](Cc1c[nH]cn1)C(=O)N[C@@H](C)C(=O)N[C@H](C(N)=O)[C@@H](C)CP(=O)(O)O,"Serine/threonine-protein kinase PLK1, polo-box (PLK1, Homo sapiens, UniProt P53350)","ligand displacement, FP",,,34 µM
C[C@H](CS)C(=O)Nc1cccc(-n2nccn2)c1,"Metallo-beta-lactamase type 2 (blaNDM-1, Klebsiella pneumoniae, UniProt C7C422)","enzyme activity, inhibitor, fluorescence",,with preincubation,2.1 µM
CC[C@H](C)[C@H](NC(=O)[C@H](CO)NC(=O)[C@H](CC(=O)O)NC(=O)[C@@H](N)C(C)C)C(=O)NCC(=O)N[C@@H](CCSC)C(=O)N[C@@H](CC(C)C)C(=O)N1CCC[C@H]1C(=O)N[C@@H](CCCNC(=N)N)C(=O)N[C@@H](Cc1ccccc1)C(=O)N[C@H](C(=O)N1CCC[C@H]1C(=O)O)[C@@H](C)O,"HLA-DRA/HLA-DRB3 (Homo sapiens, UniProt P01903+P79483)","binding, competition binding",purified HLA-DR,"48 h, together with: radiolabelled probe peptide 0.1-1 nM",> 5 µM
CN(C(=O)c1ccn2ncc(-c3ccc(C(F)(F)F)cc3)c2c1)c1ccc(C#N)cn1,"Phosphatidylinositol 4-kinase (Cryptosporidium parvum, UniProt Q5CVD3)",enzyme activity,,together with: ATP 3 µM,0.212 µM
CC(C)NCc1ccc(C[C@@H]2NC(=O)[C@@H](Cc3c[nH]c4ccccc34)NC(=O)[C@H](Cc3ccccc3)NC(=O)[C@H](Cc3ccccc3)NC(=O)[C@H](CCCCN)NC(=O)[C@@H](NC(N)=O)CSSC[C@@H](C(=O)O)NC(=O)[C@H](CO)NC(=O)[C@H]([C@@H](C)O)NC(=O)[C@H](Cc3ccc(O)c(I)c3)NC(=O)[C@H]([C@@H](C)O)NC2=O)cc1,"Somatostatin receptor type 2 (SSTR2, Homo sapiens, UniProt P30874)","ligand displacement, radioligand",,cell membranes,> 1 µM
O=C1c2c(O)cc(O)cc2OC2(c3ccc(O)c(O)c3)Oc3cc4oc(-c5ccc(O)cc5)c(O)c(=O)c4c(O)c3C12O (racemic),mushroom tyrosinase,,,pH 6.8,28.3 µM
CC[C@H](C)[C@@H]1NC(=O)[C@H](CCCNC(=N)N)NC(=O)[C@@H]2CCCN2C(=O)[C@H](C(C)C)NC(=O)[C@H](CO)NC(=O)[C@H]([C@@H](C)O)NC(=O)CNC(=O)[C@H](CC(=O)O)NC(=O)[C@@H](NC(=O)[C@@H](N)C(C)C)CSSC[C@@H](C(=O)N[C@H](C(=O)O)C(C)C)NC1=O,"Activin receptor type-2B (ACVR2B, Homo sapiens, UniProt Q13705)","Smad2/3 reporter gene, antagonist",HEK-293T,"4 h, together with: myostatin 1 ng/mL",> 100 µM
CC[C@H](C)[C@H](NC(=O)[C@H](CC(=O)O)NC(=O)[C@H](CCCNC(=N)N)NC(=O)[C@H](Cc1c[nH]c2ccccc12)NC(=O)[C@@H](NC(=O)[C@H](CO)NC(=O)[C@H](CC(N)=O)NC(=O)[C@H](CC(N)=O)NC(=O)[C@@H](NC(=O)[C@H](CCCNC(=N)N)NC(=O)[C@@H](N)Cc1c[nH]cn1)[C@@H](C)CC)[C@@H](C)CC)C(=O)N[C@@H](Cc1ccccc1)C(=O)N[C@@H](CC(C)C)C(=O)N[C@@H](CCCCN)C(=O)N[C@@H](CCCNC(=N)N)C(=O)N[C@@H](CCCCN)C(=O)O,"Sensor histidine kinase ComD (Streptococcus gordonii, UniProt O33646)",,,,> 1 µM
C[C@]1(COC(=O)c2ccc(O)c(O)c2)[C@H](C(=O)O)N2C(=O)/C(=C/c3ccccn3)[C@H]2S1(=O)=O,"Beta-lactamase (ampC, Pseudomonas aeruginosa, UniProt P24735)",inhibitor,,together with: nitrocefin,0.0013 ± 0.0002 µM
Cc1cc([C@H](NC(=O)c2cnccc2-c2ccc(C(F)(F)F)cc2)C(=O)N(C)C)cc(C(F)(F)F)c1,"NKG2-D type II integral membrane protein, with MICA (KLRK1, Homo sapiens, UniProt P26718)","ligand binding, inhibitor, TR-FRET",HEK293 expressing NKG2D and DAP10,together with: MICA-Alexa647,0.1 ± 0.03 µM
CC(=O)N[C@@H](CCCNC(=N)N)C(=O)N[C@@H](Cc1ccc(O)cc1)C(=O)N[C@@H](CCCNC(=N)N)C(=O)N[C@@H](CC(C)C)C(=O)N[C@@H](CCCNC(=N)NC(=O)NCCCCN)C(=O)N[C@@H](Cc1ccc(O)cc1)C(N)=O,"Neuropeptide Y receptor type 4 (NPY4R, Homo sapiens, UniProt P50391)","calcium signal, antagonist",,,9.58 µM
COC(=O)C=CCCC(NC(=O)c1ccncc1C(=O)O)C(=O)NC(C(=O)N1CC(=O)CC1C(=O)NC(C(=O)NC(C(N)=O)C1CCCCC1)C1CCCCC1)C(C)(C)C (centres unmarked),"Coagulation factor XIII A chain (Pig, UniProt K7GQL2)","isopeptidase activity, inhibitor",,"pig enzyme, together with: substrate A101",~0.37 µM and 0.365 µM
CC[C@@H]1C(=O)N(C)c2cnc(Oc3ccc(C(=O)NCCCC[C@H](NC(C)=O)C(=O)NCCOCCOCC(=O)NCCOCCOCC(=O)NCCOCCOCC(=O)NCCOCCOCC(=O)N4CCC[C@H]4C(=O)N[C@@H](CC(C)C)C(=O)N[C@@H](Cc4cncn4CCCCCCCCc4ccccc4)C(=O)N[C@@H](CO)C(=O)N[C@H](C(N)=O)[C@@H](C)OP(=O)(O)O)cc3OC)nc2N1CC(C)C,"Serine/threonine-protein kinase PLK1 (PLK1, Homo sapiens, UniProt P53350)","enzyme activity, inhibitor",,,0.1 ± 0.0043 µM
NC(=O)c1cccc(CCN(CC[C@H](N)C(=O)O)C[C@H]2O[C@@H](n3cnc4c(N)ncnc43)[C@H](O)[C@@H]2O)c1,"RNA 5'-monophosphate methyltransferase (BCDIN3D, Homo sapiens, UniProt Q7Z5W3)","enzyme activity, inhibitor, radiometric",,,19 µM
CC[C@H](C)[C@H](NC(=O)[C@H](C)NC(=O)[C@H](CS)NC(=O)[C@@H]1CCCN1)C(=O)N[C@@H](Cc1c[nH]c2ccccc12)C(=O)N[C@@H](Cc1ccccc1)C(=O)O,"Vascular endothelial growth factor receptor 3 (Mus musculus, UniProt P35917)",ligand displacement,,,< 40.8 µM

# For quick reference, copied from above:
SMILES,target,test,test system,conditions,IC50
C[C@H](CS)C(=O)Nc1cccc(-n2nccn2)c1,"Metallo-beta-lactamase type 2 (blaNDM-1, Klebsiella pneumoniae, UniProt C7C422)","enzyme activity, inhibitor, fluorescence",,with preincubation,2.1 µM
